Measurements from different studies.
Every numbered part comes from another study and shows a few of its results, in no order. Positions count from the first letter of the parent shown.
Chain of UniProt P16591 (whole entry, looked up): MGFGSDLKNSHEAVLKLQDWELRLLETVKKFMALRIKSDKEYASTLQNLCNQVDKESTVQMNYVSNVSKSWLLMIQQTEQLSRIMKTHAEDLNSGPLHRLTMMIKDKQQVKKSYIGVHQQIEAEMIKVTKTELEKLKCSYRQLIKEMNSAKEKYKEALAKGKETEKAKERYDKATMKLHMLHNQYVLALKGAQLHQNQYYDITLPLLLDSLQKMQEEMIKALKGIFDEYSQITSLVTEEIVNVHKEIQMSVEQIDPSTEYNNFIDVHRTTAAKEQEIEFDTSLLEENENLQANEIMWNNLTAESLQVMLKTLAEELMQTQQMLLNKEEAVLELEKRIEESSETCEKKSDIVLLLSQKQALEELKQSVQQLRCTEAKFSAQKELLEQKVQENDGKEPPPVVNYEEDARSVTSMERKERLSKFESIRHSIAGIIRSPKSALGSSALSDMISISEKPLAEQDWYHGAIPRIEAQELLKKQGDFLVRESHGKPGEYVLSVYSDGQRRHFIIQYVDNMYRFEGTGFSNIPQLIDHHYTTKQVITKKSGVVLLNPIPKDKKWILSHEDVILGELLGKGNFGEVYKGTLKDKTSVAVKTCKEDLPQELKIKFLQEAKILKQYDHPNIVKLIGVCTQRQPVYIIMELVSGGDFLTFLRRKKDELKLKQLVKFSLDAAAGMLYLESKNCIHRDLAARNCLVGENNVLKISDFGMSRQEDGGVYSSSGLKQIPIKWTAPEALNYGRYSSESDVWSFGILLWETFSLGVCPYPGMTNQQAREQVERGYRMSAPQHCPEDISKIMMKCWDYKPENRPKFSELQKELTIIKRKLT

Sample 1
Target: tungstate, free oxyanion
Technique: microfluidic competitive inhibition
Matrix: in vitro, cell-free expressed
Tested at: not given
Notes: derived from inhibition constants, unchanged parent 2230 nM
Reading: lower = stronger binding
Starting sequence: PafA, mature enzyme, eGFP fusion (Elizabethkingia meningoseptica, UniProt Q9KJX5); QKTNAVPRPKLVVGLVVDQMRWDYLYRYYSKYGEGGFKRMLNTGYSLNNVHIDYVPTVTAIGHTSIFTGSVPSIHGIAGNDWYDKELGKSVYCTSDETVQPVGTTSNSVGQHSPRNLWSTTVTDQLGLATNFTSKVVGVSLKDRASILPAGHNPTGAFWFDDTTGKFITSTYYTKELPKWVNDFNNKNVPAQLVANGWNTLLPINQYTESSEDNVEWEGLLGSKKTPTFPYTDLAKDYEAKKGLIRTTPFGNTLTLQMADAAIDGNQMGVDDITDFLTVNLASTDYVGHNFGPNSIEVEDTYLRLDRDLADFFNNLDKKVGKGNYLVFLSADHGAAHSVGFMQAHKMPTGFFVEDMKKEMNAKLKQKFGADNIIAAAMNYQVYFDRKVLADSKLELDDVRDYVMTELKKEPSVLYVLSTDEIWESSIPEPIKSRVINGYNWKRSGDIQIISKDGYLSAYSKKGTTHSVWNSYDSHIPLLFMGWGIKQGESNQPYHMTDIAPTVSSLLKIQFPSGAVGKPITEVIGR
| Substitution | oxyanion analog dissociation constant |
| --- | --- |
| H112V | 1.1 µM |
| I52V | 3.01 µM |
| I524G | 1.7 µM |
| K322V | 2.1 µM |
| S90G | 2 µM |
| V58G | 10.1 µM |
| M404G | 1.85 µM |
| F384G | 2.42 µM |

Sample 2
Target: UDP-N-acetylglucosamine--peptide N-acetylglucosaminyltransferase 110 kDa subunit (OGT, Homo sapiens, UniProt O15294)
Chain of UniProt O15294 (whole entry, looked up): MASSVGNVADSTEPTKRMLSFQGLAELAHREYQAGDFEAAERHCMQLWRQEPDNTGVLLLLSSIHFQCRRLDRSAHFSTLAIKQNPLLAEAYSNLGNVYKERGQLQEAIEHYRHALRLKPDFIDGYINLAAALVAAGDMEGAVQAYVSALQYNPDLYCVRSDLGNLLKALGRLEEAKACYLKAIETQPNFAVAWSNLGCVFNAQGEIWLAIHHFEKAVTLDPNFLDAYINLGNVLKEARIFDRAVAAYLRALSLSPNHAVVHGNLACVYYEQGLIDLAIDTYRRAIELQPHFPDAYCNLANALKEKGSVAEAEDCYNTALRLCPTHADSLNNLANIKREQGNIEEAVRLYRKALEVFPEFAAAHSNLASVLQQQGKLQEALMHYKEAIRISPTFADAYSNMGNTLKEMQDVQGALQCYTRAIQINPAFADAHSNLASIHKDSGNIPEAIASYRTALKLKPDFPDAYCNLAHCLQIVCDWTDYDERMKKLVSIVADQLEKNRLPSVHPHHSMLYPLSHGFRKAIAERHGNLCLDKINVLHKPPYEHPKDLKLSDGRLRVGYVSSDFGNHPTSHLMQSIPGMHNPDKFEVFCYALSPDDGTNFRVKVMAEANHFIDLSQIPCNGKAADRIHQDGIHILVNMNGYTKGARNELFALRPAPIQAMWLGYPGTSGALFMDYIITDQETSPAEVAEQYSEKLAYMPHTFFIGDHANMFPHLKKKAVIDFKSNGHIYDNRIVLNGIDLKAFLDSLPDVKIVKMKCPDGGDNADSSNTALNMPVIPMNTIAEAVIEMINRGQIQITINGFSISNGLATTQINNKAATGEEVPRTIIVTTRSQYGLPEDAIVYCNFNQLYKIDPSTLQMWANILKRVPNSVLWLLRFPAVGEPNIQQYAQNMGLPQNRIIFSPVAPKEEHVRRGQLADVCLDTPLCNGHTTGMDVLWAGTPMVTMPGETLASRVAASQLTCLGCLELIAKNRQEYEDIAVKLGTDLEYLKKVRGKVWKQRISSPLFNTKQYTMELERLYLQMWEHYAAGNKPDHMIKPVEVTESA
Read-out: binding
Technique: phage display NGS
Molecule type: peptide
Tested at: concentration not given
Notes: panning round 2
Relative to: input library
| Sequence | enrichment fold change |
| --- | --- |
| YFEPKYEISFKYPHD | 10.6 |
| DTRWVPSYQIKYSYM | 5.11 |
| HQHPHGQYKEQIGHY | 7.15 |
| HPFHHNYVHYLSREQ | 5.47 |

Sample 3
Target: CCNB1, cyclin fold, Cln2 fusion (human)
Technique: yeast growth competition, sequencing
Matrix: yeast
Notes: strong parent motif
Relative to: not given
Reading: higher = stronger binding
Starting sequence: viral docking peptide; TSVRRALFTGGSD
| Substitution | normalised enrichment score |
| --- | --- |
| TSVRRALFTGWSD [G11W] | 0.948 |
| TSVERALFTGGSD [R4E] | 0.86 |
| TSVRAALFTGGSD [R5A] | 0.569 |
| TSVRRALFEGGSD [T9E] | 2.04 |
| TSVRRALRTGGSD [F8R] | 0.29 |
| TSVRRADFTGGSD [L7D] | 0.156 |
| TSVRRALFTGGND [S12N] | 2.32 |
| TSVRRALPTGGSD [F8P] | 0.267 |

Single results of other studies
| SMILES | target | assay | conditions | how to read | endpoint | value |
| --- | --- | --- | --- | --- | --- | --- |
| N/C(=N\[N+](=O)[O-])N/N=C\c1ccc(-c2cccc([N+](=O)[O-])c2)o1 | Tyrosine-protein kinase Fer (FER, Homo sapiens, UniProt P16591) | enzyme activity, inhibitor | 0.5 µM | relative to: control | remaining activity | 94.7% |

Repeated from above (sample 3):
| Substitution | normalised enrichment score |
| --- | --- |
| TSVRRADFTGGSD [L7D] | 0.156 |
| TSVRRALFTGGND [S12N] | 2.32 |
